Published values of several laboratories.
Numbers after ± are the reported error.
Target: Neuropeptide Y receptor type 1 (NPY1R, Homo sapiens, UniProt P25929)
Sequence of UniProt P25929 (whole entry, looked up): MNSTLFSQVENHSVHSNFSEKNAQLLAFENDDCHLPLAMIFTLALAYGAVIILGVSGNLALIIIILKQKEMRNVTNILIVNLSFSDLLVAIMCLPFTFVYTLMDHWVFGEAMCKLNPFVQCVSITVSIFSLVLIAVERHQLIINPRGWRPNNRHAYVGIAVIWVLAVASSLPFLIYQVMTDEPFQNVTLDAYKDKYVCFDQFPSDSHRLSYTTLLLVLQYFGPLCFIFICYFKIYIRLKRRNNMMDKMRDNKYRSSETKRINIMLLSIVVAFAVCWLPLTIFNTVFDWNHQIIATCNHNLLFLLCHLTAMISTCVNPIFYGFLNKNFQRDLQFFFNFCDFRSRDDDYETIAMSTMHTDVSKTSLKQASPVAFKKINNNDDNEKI

| Structure (SMILES) | read-out | method | tested at | endpoint | result |
| --- | --- | --- | --- | --- | --- |
| C[Si]1(C[C@H](CN)CC(=O)O)CCCC1 | ligand displacement | radioligand | 70 µM | inhibition | -5% |
| O=C1c2sc(-c3ccc(N4CCC(CO)CC4)nc3F)nc2CCN1c1cccnc1 | ligand displacement | radioligand | 1 µM | inhibition | -1% |
| Cn1ccc2cc(-n3c(=O)[nH]c4sc5c(c4c3=O)CCCC5)ccc21 | cell-free assay |  | 10 µM | inhibition | 0% |
| CO[C@@H](C)c1c(NC(=O)Nc2cnc(-n3nccn3)c(C(F)(F)F)c2)cnc2sc(C)nc12 | ligand displacement | radioligand | 10 µM | inhibition | -52.8% |
| CC[C@H](C)[C@H](NC(=O)[C@H](Cc1ccc(O)cc1)NC(=O)[C@H](CCCNC(=N)N)NC(=O)[C@H](CCCNC(=N)N)NC(=O)[C@H](CC(C)C)NC(=O)[C@H](CC(=O)O)NC(=O)[C@H](C)NC(=O)[C@H](C)NC(=O)[C@H](Cc1ccc(O)cc1)NC(=O)[C@H](CCC(N)=O)NC(=O)[C@H](C)NC(=O)[C@H](CCSC)NC(=O)[C@H](CCC(N)=O)NC(=O)[C@H](CCC(=O)O)NC(=O)[C@@H]1CCCN1C(=O)[C@@H](NC(=O)[C@H](C)NC(=O)[C@H](CC(N)=O)NC(=O)[C@H](CC(=O)O)NC(=O)CNC(=O)[C@@H]1CCCN1C(=O)[C@H](Cc1ccc(O)cc1)NC(=O)[C@@H](NC(=O)[C@@H]1CCCN1C(=O)[C@H](CCCCN)NC(=O)[C@H](CC(C)C)NC(=O)[C@@H]1CCCN1C(=O)[C@@H](N)Cc1ccc(O)cc1)C(C)C)[C@@H](C)O)C(=O)N[C@@H](CC(N)=O)C(=O)N[C@@H](CCSC)C(=O)N[C@@H](CC(C)C)C(=O)N[C@H](C(=O)N[C@@H](CCCNC(=N)N)C(=O)N1CCC[C@H]1C(=O)N[C@@H](CCCNC(=N)N)C(=O)N[C@@H](Cc1ccc(O)cc1)C(N)=O)[C@@H](C)O |  |  | concentration not given | Emax | 104 ± 4% |
| C[Si](C)(C)C[C@@H](CN)CC(=O)O | ligand displacement | radioligand | 75 µM | inhibition | -11% |
| CC(=O)c1cnc(N)nc1N1CC[C@H]1c1nn2ccc(Cl)c2c(=O)n1-c1ccccc1 | ligand displacement | radioligand | 10 µM | inhibition | 15% |
| Cc1[nH]nc2c1N=C(c1ccccc1Cl)c1cnc(N3CCOCC3)cc1N2 | cell-free assay |  | 10 µM | inhibition | 2% |
| CCC(=O)N(C)c1ccc(Cl)c(Cl)c1 | ligand displacement | radioligand | 10 µM | inhibition | < 10% |
| COCC(=O)N1CCc2cc(-c3csc(NC(=O)c4cc(OC)cc(OC)c4)n3)ccc21 | cell-free assay |  | 10 µM | inhibition | -8% |

For quick reference, copied from above:
| Structure (SMILES) | read-out | method | tested at | endpoint | result |
| --- | --- | --- | --- | --- | --- |
| Cn1ccc2cc(-n3c(=O)[nH]c4sc5c(c4c3=O)CCCC5)ccc21 | cell-free assay |  | 10 µM | inhibition | 0% |
